Assay results of several laboratories.
Each line is one published result; not all experiments were run side by side. Several values in a cell are separate wells, animals, samples, runs or records. ± gives the spread as reported.

With `C#CCOc1ccc(C(=O)c2ccc(NC(=O)C(=O)NCCc3ccc(OC)cc3)cc2)cc1` the half-life was 2.1 h (CD-1 mouse, mouse liver S9 fraction; 2 µM).
The half-life of `O=C(c1ccccc1)N1C(c2ccc(OCC3CCN(CCCF)C3)cc2)c2ccc(O)cc2CC12CC2` (stereo not shown) is reported as 3.7 h and 3.57 h (C57BL/6J mouse, plasma; intraperitoneal, 25 mg/kg).
The half-life of `C/C(=N\Nc1ncnc2sc3c(c12)CCCC3)c1cc(O)ccc1O` is reported as 1.58 h (ICR mouse, plasma; intravenous, 1 mg/kg).
The half-life of `Cc1ncsc1-c1ccc(CNC(=O)[C@@H]2C[C@@H](O)CN2C(=O)[C@@H](NC(=O)COCC(C)(COCCOCCOCCNC(=O)C[C@@H]2N=C(c3ccc(Cl)cc3)c3c(sc(C)c3C)-n3c(C)nnc32)COCCOCCOCCNC(=O)C[C@@H]2N=C(c3ccc(Cl)cc3)c3c(sc(C)c3C)-n3c(C)nnc32)C(C)(C)C)cc1` is reported as 2.13 h (C57BL/6 mouse male, plasma; intravenous, 5 mg/kg).
With `CN(Cc1cc(C2CC2)on1)C(=O)c1cccc(-c2ccc(F)cc2)c1` the half-life was 0.197 h (ICR/CD-1 mouse, male, liver microsomes; 2 µM, pH 7.5, without 1-aminobenzotriazole).
`Cc1ccc(=O)n(-c2ccc(O)cc2)c1` gave a half-life of 1.96 ± 0.38 h (BALB/c mouse, plasma; oral, 1.0 mmol/kg).
With `O=c1c(-c2cnn(-c3ccccc3)c2)c(C(F)(F)F)oc2c(O)c(O)ccc12` the half-life was 7.2 h (mouse; intraperitoneal, 100 mg/kg, DMSO vehicle).
For `Cl.NCc1ccc2c(c1)CN(C1CCC(=O)NC1=O)C2=O` (stereo not shown), the half-life was > 3 h (male CD-1 mouse, whole blood).
`CCC1(CC)CC(=O)N(C2c3cc(C(=O)NC4c5ccccc5CC4O)ccc3OC2(C)COC)C(=N)N1` (stereo not shown) has a half-life of 4.2 ± 0.6 h (C57BL/6 mouse male, plasma).
With `Cc1ccc2oc(-c3c4c(N)n[nH]c(=O)c4nn3-c3ccc(NC(=O)/C=C/CN(C)C)cc3)c(C)c2c1` the half-life was 1.96 h (BALB/c nude mouse, whole blood; 1 µM, 37 °C).
The half-life of `O=S(=O)(N[C@H]1CCC[C@@H](N2c3ccccc3CCc3ccccc32)[C@@H]1O)c1ccc(OC(F)(F)F)cc1` is reported as 3.6 h (mouse, plasma; oral, 100 mg/kg, suspension).
`Cc1ccc(OCC(=O)N(Cc2cccs2)c2ccn[nH]2)cc1` has a half-life of 0.46 h (male CD-1 mouse, plasma; oral, 30 mg/kg).
For `Cc1c(-c2c3c(N)n[nH]c(=O)c3nn2-c2ccc(NC(=O)/C=C/CN(C)C)cc2)oc2cc(F)ccc12`, the half-life was 1.44 h (BALB/c nude mouse, whole blood; 1 µM, 37 °C).
`O=C(NS(=O)(=O)c1cccs1)c1cc2ccccc2n1Cc1ccc(Br)c2ccccc12` gave a half-life of 0.84 h (mouse, plasma; oral, 1 mg/kg).
The half-life of `C=CC(=O)Nc1ccc(-n2nc3c(=O)[nH]nc(N)c3c2-c2oc3cc(F)ccc3c2C)cc1` is reported as 2.21 h (BALB/c nude mouse, whole blood; 1 µM, 37 °C).
For `O=S(=O)(NCc1ccncc1)c1ccc(C2CCCCC2)cc1`, the half-life was 0.5 h (C57BL/6J mouse, male, plasma; intraperitoneal, 0.3 mg/kg).

For quick reference, copied from above:
`CCC1(CC)CC(=O)N(C2c3cc(C(=O)NC4c5ccccc5CC4O)ccc3OC2(C)COC)C(=N)N1` (stereo not shown) has a half-life of 4.2 ± 0.6 h (C57BL/6 mouse male, plasma).
With `Cc1ccc2oc(-c3c4c(N)n[nH]c(=O)c4nn3-c3ccc(NC(=O)/C=C/CN(C)C)cc3)c(C)c2c1` the half-life was 1.96 h (BALB/c nude mouse, whole blood; 1 µM, 37 °C).
